Measured values collected from several papers.
Parts stem from different laboratories: compare values within a part only.

Study 1 — technique: RNA Bind-n-Seq; molecule type: RNA; medium: in vitro; tested at: 365 nM; reference: no-protein control; direction: higher = stronger binding
Target: RNA binding protein fox-1 homolog 2, RRM domain, GST-SBP tag (RBFOX2, Homo sapiens, UniProt O43251-10, residues 100-194)
Notes: natural RNA segment, single round, ends assumed
Constant ends, left off below: GGGAGUUCUACAGUCCGACGAUC … UGGAAUUCUCGGGUGCCAA
Target sequence (chain): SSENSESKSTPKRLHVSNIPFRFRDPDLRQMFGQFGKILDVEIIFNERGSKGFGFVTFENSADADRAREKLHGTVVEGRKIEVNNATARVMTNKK
Strand	RBNS enrichment (R)
UGCAGAGAGCCCCAUUAUCUCCUCUGGACCUGGGCCUUCGAACACCUGGGGGGUAUUUUUUGCCCUCCGUUGGGACACCAGUCUUCGGUGUGUGGAAAUGUGGAAGUCCU	0.229
GACACUCCAGACAUGGGAGAAGGACUUUCUGGGAACACAGAGACCAAGAGGGAGAGAGGCUUCAGAACCAGUCCUCCUUUCAUUUCAAAACCCCAGCGGGCCCUCUGGAG	0.35
GUGGUUACUUGAUUUUGAGGAAGAAAAUAUUCAGCUUUGUAUAAAGACUAGGUAUCAGAUUCCUUUUGCAGUGGGAGGUGUAUAUAUCGUAUUUUGGUAUAGAGUAGGAC	0.397
AUCGGGAGGGGAGCAGUAGCACUAUGGGAGGGAGAGAGGCCUUCCAUAGCCUCCUCCCCAGGACCUGUGCUCCCAGCUUCUGCAGAGACCCCAGCAACUUUCCCUCCAAG	0.312
CCGCAGGAACAAUGGAAAACUAUUUAAGGGAACAUUGCAGAAAUAUUUGAUGACUGUUUCUUGUGGAAGCCCAAAGUCCACUCUAAGAGCAGAAGAAAUACCAAAAUGUU	0.28

Study 2 — technique: protein-binding microarray; molecule type: double-stranded DNA, one strand shown; medium: in vitro; tested at: not given; direction: higher = stronger binding
Target: Transcriptional repressor CTCF (CTCF, Homo sapiens, UniProt P49711, residues 1-727, full length assumed)
UniProt P49711, sequence (whole entry, looked up): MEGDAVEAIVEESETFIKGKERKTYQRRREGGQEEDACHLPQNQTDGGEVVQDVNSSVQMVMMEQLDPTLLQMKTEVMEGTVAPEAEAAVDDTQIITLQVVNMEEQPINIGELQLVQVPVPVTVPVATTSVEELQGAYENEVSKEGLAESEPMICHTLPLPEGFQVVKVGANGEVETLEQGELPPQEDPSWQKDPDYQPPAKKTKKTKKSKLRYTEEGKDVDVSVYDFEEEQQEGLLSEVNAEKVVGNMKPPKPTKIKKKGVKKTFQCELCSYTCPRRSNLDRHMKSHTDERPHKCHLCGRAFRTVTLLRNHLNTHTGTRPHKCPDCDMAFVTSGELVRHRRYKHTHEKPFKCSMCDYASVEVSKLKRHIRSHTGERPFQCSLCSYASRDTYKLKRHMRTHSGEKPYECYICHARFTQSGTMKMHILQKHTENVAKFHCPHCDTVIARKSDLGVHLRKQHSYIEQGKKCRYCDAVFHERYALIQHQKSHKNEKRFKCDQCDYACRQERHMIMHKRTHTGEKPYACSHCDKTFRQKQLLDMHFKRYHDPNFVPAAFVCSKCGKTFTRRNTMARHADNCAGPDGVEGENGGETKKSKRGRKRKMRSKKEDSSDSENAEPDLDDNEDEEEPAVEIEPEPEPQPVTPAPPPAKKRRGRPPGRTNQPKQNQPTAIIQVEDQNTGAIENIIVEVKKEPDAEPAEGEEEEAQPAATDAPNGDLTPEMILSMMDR
Notes: k-mer, scored over probes, only values ≥0.25
Strand	E-score
GATAGGTA	0.26
CCACATGC	0.277
GGGGCGCA	0.417
ATGAAACA	0.315
ATTTGCGC	0.306
CGCGCGTA	0.295
TGCGCACA	0.422

Study 3 — technique: universal PBM; molecule type: double-stranded DNA, one strand shown; medium: in vitro; tested at: 600 nM; direction: higher = stronger binding
Target: Sal-like protein 4, full length isoform A (SALL4, Homo sapiens, UniProt Q9UJQ4, residues 1-1053)
UniProt Q9UJQ4, sequence (whole entry, looked up): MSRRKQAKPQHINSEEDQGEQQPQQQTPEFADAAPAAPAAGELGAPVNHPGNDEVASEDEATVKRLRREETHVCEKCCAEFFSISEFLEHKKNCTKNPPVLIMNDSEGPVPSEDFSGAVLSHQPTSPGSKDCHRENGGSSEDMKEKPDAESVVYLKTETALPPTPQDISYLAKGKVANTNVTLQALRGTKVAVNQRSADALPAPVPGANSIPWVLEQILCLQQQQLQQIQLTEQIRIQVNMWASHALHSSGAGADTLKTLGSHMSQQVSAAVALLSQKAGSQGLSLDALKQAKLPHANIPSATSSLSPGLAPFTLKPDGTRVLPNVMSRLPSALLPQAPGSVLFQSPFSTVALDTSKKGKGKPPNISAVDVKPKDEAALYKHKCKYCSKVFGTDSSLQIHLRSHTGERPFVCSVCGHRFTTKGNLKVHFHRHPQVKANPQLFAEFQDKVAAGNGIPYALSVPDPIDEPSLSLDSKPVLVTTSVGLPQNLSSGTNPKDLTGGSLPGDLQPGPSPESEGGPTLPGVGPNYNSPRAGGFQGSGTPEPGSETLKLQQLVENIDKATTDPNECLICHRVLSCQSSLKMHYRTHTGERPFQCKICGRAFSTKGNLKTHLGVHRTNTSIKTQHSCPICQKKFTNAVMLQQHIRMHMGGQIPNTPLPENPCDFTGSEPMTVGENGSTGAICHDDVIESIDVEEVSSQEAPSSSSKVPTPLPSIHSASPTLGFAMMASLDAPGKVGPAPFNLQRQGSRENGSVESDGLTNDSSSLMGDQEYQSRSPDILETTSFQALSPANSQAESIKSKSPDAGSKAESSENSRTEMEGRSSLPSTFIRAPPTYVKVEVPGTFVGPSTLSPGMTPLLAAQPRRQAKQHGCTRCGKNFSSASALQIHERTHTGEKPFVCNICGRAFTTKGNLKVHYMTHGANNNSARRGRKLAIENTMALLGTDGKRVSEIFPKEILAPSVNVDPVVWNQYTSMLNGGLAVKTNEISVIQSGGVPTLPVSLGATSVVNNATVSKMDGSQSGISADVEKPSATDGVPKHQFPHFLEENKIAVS
Notes: 8-mer, flanks averaged, mean of replicates
Strand	E-score
CAAGGATC	0.0864
AATTAGAT	0.27
AAATTGTG	0.206
AGCAAGAT	0.0882
CAGTGGAG	-0.127
AAAGAACC	-0.0738
AGCTAGTC	-0.028

Other studies, line by line
Substance	target	assay	test system	conditions	scale	quantity	value
PhoQ, residues 284 288 289 292 302 303 NSMLDC	PhoP, residues 12 14 15 18 19 NQCAL (Escherichia coli, UniProt P23836)	Sort-seq, item: YFP reporter	E. coli	PhoQ-PhoP variant library, with: 10 µM Mg2+	reference: high Mg2+ state, higher = stronger signaling	fold induction	15
